Results collected from several papers.
Lines come from different studies, so protocols differ. ± marks the error that the study gave.
Cell line: HeLa

| Compound | assay | test system | conditions | how to read | endpoint | result |
| --- | --- | --- | --- | --- | --- | --- |
| c1coc(CNc2ncnc3[nH]cnc23)c1 | GLA poison exon splicing reporter |  | concentration not given |  | GLA reporter splicing | no effect |
| COc1ccc(CNC[C@@](C)(O)[C@@H]2CC[C@@H](C)C[C@H]2OCc2ccccc2)cc1 | cell growth, inhibitor, MTT |  | 72 h |  | IC50 | 4320 nM |
| O=S(=O)(NCCNC/C=C/c1ccc(Br)cc1)c1cccc2cnccc12 | plasma membrane PKA reporter, inhibitor |  | concentration not given, added: forskolin/IBMX |  | PKA activity | inhibited |
| Clc1nc(NCc2ccco2)c2[nH]cnc2n1 | GLA poison exon splicing reporter |  | 10 µM, 18 h |  | mean GFP/RFP ratio | 1 |
| O=C(Nc1cc(OCCN2CCCC2)c2ccccc2n1)c1cc(OCc2ccc(F)cc2)cc(C(=O)Nc2cc(OCCN3CCCC3)c3ccccc3n2)n1 | cell viability, CellTiter-Glo |  | 72 h | relative to: IC50 HeLa over WI-38 | selectivity ratio | 0.9 |
| Nc1nc(Cl)nc2nc[nH]c12 | splicing reporter, refers to: GLA |  | 10 µM, 18 h |  | GFP/RFP ratio | 0.26 |
| COc1ccc(CNC[C@](O)(COCc2ccc(F)cc2)[C@@H]2CC[C@@H](C)C[C@H]2OCc2ccc(F)cc2)cc1 | cell growth, inhibitor, MTT |  | 72 h |  | IC50 | 2450 nM |
| Nc1nc(F)nc2nc[nH]c12 | GLA poison exon splicing reporter |  | 1 µM, 18 h, solubility limited above 1 µM |  | mean GFP/RFP ratio | 0.16 |
| CN1CC[C@H](c2c(O)cc(O)c3c(=O)cc(-c4ccccc4Cl)oc23)[C@H](O)C1 | RT-qPCR, refers to: cyclin A, Cdc2 |  | 200 nM |  | mRNA level | decreased |
| C[C@]1(c2nc3c(C(N)=O)cccc3[nH]2)CCCN1 | PAR formation, inhibitor |  | added: hydrogen peroxide |  | EC50 | 4.5 nM |
| O=C(NC[C@H](O)CN1CCc2ccccc2C1)c1cc(NC2COC2)ncn1 | co-immunoprecipitation, western blot, refers to: EFTUD2 with GFP-SART3 |  | 10 µM, 3 days |  | protein interaction | decreased |
| CCCCCCCC/C=C\CCCCCCCC(=O)O |  |  | 200 µM, 3 h, BSA complex |  | mitochondrial length decrease | 32% |
| NCCOc1cc(NC(=O)c2cc(OCc3c[nH]nn3)cc(C(=O)Nc3cc(OCCN)c4ccccc4n3)n2)nc2ccccc12 | cell viability, CellTiter-Glo |  | 72 h | relative to: IC50 HeLa over WI-38 | selectivity ratio | 5.2 |
| CC[C@H](C)[C@@H]1NC(=O)[C@H](Cc2ccc(O)cc2)NC(=O)[C@H](CC(C)C)NC(=O)[C@@H]2CCCN2C(=O)[C@H](NC(=O)[C@@H](CCCNC(=N)N)NC(=O)[C@@H](CCCNC(=N)N)NC(=O)[C@H](CCCCN=[N+]=[N-])NC(C)=O)CSCSC[C@@H](C(=O)N[C@H](CCCNC(=N)N)C(=O)N[C@H](CCCNC(=N)N)C(N)=O)NC(=O)[C@H](C(C)C)NC(=O)[C@@H]2CCCN2C(=O)[C@H](CC(=O)O)NC(=O)[C@H](Cc2ccc(O)cc2)NC(=O)[C@H](CO)NC1=O | cell permeability, NanoClick |  | 18 h |  | EC50 | 1260 nM |
| CCCCCCCCCCCCCC(=O)N[C@@H](CCSC)C(=O)N[C@@H](C)C(=O)N[C@@H](CO)C(=O)N[C@@H](CCCNC(=N)N)C(=O)NCC(=O)N[C@@H](C)C(=O)N[C@@H](CC(C)C)C(=O)N[C@@H](CCCNC(=N)N)C(=O)N[C@@H](CCCNC(=N)N)C(=O)N[C@@H](CS)C(=O)N[C@@H](CC(C)C)C(=O)N[C@@H](CO)C(=O)N1CCC[C@H]1C(=O)NCC(=O)N[C@@H](CC(C)C)C(=O)N1CCC[C@H]1C(=O)N[C@@H](CCCNC(=N)N)C(=O)N[C@@H](CC(C)C)C(=O)N[C@@H](CC(C)C)C(=O)N[C@@H](Cc1c[nH]cn1)C(=O)N[C@@H](CC(C)C)C(=O)N[C@@H](CO)C(=O)N[C@@H](CCCNC(=N)N)C(=O)NCC(=O)N[C@@H](CC(C)C)C(=O)N[C@@H](C)C(N)=O | cell viability, XTT |  | concentration not given, cervix |  | viability | inhibited |
| C[C@@H]1CC[C@@H]([C@](C)(O)Cn2ccnc2)[C@H](OCc2ccccc2)C1 | cell growth, inhibitor, MTT |  | 72 h |  | IC50 | 24500 nM |
| CN(C)CCOc1cc(NC(=O)c2cc(Cl)cc(C(=O)Nc3cc(OCCN(C)C)c4ccccc4n3)n2)nc2ccccc12 | cell viability, CellTiter-Glo |  | 72 h | relative to: IC50 HeLa over WI-38 | selectivity ratio | 1.3 |
| COc1ccc(NC(=S)N/N=C/c2cccc3cc4ccccc4nc23)cc1 | annexin V/PI |  | concentration not given, 48 h, dosed at IC25, added: N-acetylcysteine |  | early apoptotic cells | 7.2% |
| COc1cccc2c1C(=O)c1c(O)c3c(c(O)c1C2=O)C[C@@](O)(C(=O)CO)C[C@@H]3O[C@H]1C[C@H](N)[C@H](O)[C@H](C)O1 | cell viability, MTT |  | 24 h |  | IC50 | 1.28 ± 0.07 µg/mL |

| Compound | assay | test system | conditions | how to read | endpoint | result |
| --- | --- | --- | --- | --- | --- | --- |
| COc1cccc2c1C(=O)c1c(O)c3c(c(O)c1C2=O)C[C@@](O)(C(=O)CO)C[C@@H]3O[C@H]1C[C@H](N)[C@H](O)[C@H](C)O1 |  |  | 5 µM, 24 h | relative to: untreated | caspase-3/7 activity | > 8 fold |
| CC[C@H](C)[C@H](NC(=O)[C@H](Cc1c[nH]cn1)NC(=O)[C@H](Cc1ccccc1)NC(=O)[C@H]1CSCc2ccccc2CSC[C@@H](NC(=O)[C@@H](NC(=O)c2cccnc2)C(C)C)C(=O)N[C@@H](CC(N)=O)C(=O)N[C@@H](C)C(=O)N1)C(=O)N[C@@H](Cc1c[nH]c2ccccc12)C(=O)N[C@@H](Cc1c[nH]cn1)C(N)=O | immunoblot, refers to: LC3 lipidation and p62 degradation | acidified Opti-MEM | concentration not given, 2 h |  | autophagy induction | inactive |
| COc1ccc(CNC[C@](O)(COCc2ccc(OC)cc2)[C@@H]2CC[C@@H](C)C[C@H]2OCc2ccc(OC)cc2)cc1 | cell growth, inhibitor, MTT |  | 72 h |  | IC50 | 1950 nM |
| O=C(Nc1cc(OCCN2CCCC2)c2ccccc2n1)c1cc(OCCN2CCCC2)cc(C(=O)Nc2cc(OCCN3CCCC3)c3ccccc3n2)n1 | cell viability, CellTiter-Glo |  | 72 h | relative to: IC50 HeLa over WI-38 | selectivity ratio | 0.9 |
| C[C@@H]1CC[C@@H]([C@](C)(O)CNCc2cccc3ccccc23)[C@H](OCc2ccccc2)C1 | cell growth, inhibitor, MTT |  | 72 h |  | IC50 | 5420 nM |
| CN(C)CCCOc1cc(NC(=O)c2cc(Cl)cc(C(=O)Nc3cc(OCCCN(C)C)c4ccccc4n3)n2)nc2ccccc12 | cell viability, CellTiter-Glo |  | 72 h | relative to: IC50 HeLa over WI-38 | selectivity ratio | 2.3 |
| C=C(COCc1ccc(OC)cc1)[C@@H]1CC[C@@H](C)C[C@H]1OCc1ccc(OC)cc1 | cell growth, inhibitor, MTT |  | 72 h |  | IC50 | 24700 nM |
| Nc1ncnc2c1ncn2C1CCCO1 (centres unmarked) | splicing reporter, refers to: GLA |  | 10 µM, 18 h |  | GFP/RFP ratio | 0.24 |
| C[C@@H]1CC[C@@H]([C@@](O)(CNCc2cccc3ccccc23)COCc2ccccc2)[C@H](OCc2ccccc2)C1 | cell growth, inhibitor, MTT |  | 72 h |  | IC50 | 2520 nM |
| CC(=O)N[C@@H](CS)C(=O)O | annexin V/PI flow cytometry |  | concentration not given, 48 h |  | necrotic cells | 3.76 ± 2% |
| NCCCOc1cc(NC(=O)c2cc(OCCN)cc(C(=O)Nc3cc(OCCCN)c4ccccc4n3)n2)nc2ccccc12 | cell viability, CellTiter-Glo |  | 72 h | relative to: IC50 HeLa over WI-38 | selectivity ratio | 0.8 |
| COC(=O)COc1c(Cc2cc(C(C)(C)CC(C)(C)C)cc(-n3nc4ccccc4n3)c2OCC(=O)OC)cc(C(C)(C)CC(C)(C)C)cc1-n1nc2ccccc2n1 | MTT |  | 100 µM, 24 h |  | growth inhibition | 55.1 ± 1.98% |
| C[C@@H]1CC[C@@H]([C@](C)(O)CNCc2ccccc2)[C@H](OCc2ccccc2)C1 | cell growth, inhibitor, MTT |  | 72 h |  | IC50 | 2840 nM |
| Cn1cnc2c(NCc3ccccc3)nc(Cl)nc21 | splicing reporter, refers to: GLA |  | 10 µM, 18 h |  | GFP/RFP ratio | 0.17 |
| COc1cccc2c1C(=O)c1c(O)c3c(c(O)c1C2=O)C[C@@](O)(C(=O)CO)C[C@@H]3O[C@H]1C[C@H](N)[C@H](O)[C@H](C)O1 | MTT |  | 100 µM, 24 h |  | growth inhibition | 69.2 ± 1.98% |
| NCCOc1cc(NC(=O)c2cccc(C(=O)Nc3cc(OCCN)c4ccccc4n3)n2)nc2ccccc12 | cell viability, CellTiter-Glo |  | 72 h | relative to: IC50 HeLa over WI-38 | selectivity ratio | 0.9 |
| Clc1ncnc2c1ncn2C1CCCCO1 (centres unmarked) | splicing reporter, refers to: GLA |  | 10 µM, 18 h |  | GFP/RFP ratio | 0.5 |
| C#CCOc1cc(C(=O)Nc2cc(OCCN)c3ccccc3n2)nc(C(=O)Nc2cc(OCCN)c3ccccc3n2)c1 | cell viability, CellTiter-Glo |  | 72 h | relative to: IC50 HeLa over WI-38 | selectivity ratio | 0.8 |
| Clc1nc(Nc2ccc(N3CCOCC3)cc2)c2ncn(C3CCCCC3)c2n1 | splicing reporter, refers to: GLA |  | 10 µM, 18 h |  | GFP/RFP ratio | 0.17 |

Repeated from above:
| Compound | assay | test system | conditions | how to read | endpoint | result |
| --- | --- | --- | --- | --- | --- | --- |
| COC(=O)COc1c(Cc2cc(C(C)(C)CC(C)(C)C)cc(-n3nc4ccccc4n3)c2OCC(=O)OC)cc(C(C)(C)CC(C)(C)C)cc1-n1nc2ccccc2n1 | MTT |  | 100 µM, 24 h |  | growth inhibition | 55.1 ± 1.98% |
| CN(C)CCOc1cc(NC(=O)c2cc(Cl)cc(C(=O)Nc3cc(OCCN(C)C)c4ccccc4n3)n2)nc2ccccc12 | cell viability, CellTiter-Glo |  | 72 h | relative to: IC50 HeLa over WI-38 | selectivity ratio | 1.3 |
